Measured values pooled from the literature.
Protocols differ between the studies behind these lines. Values joined by “and” are separate records of one study, mostly repeats; a detail may differ. ± gives the spread as reported.
UCHL1: Ubiquitin carboxyl-terminal hydrolase isozyme L1 (UCHL1, Homo sapiens, UniProt P09936)
Sequence of UniProt P09936 (whole entry, looked up): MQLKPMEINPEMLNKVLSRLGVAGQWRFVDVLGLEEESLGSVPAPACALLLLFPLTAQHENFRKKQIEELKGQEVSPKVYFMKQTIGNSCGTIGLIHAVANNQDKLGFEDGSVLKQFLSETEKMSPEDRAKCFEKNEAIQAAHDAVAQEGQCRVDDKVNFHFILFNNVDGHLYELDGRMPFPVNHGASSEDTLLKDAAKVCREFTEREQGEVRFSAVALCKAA
Sequence of UniProt Q07794 (whole entry, looked up): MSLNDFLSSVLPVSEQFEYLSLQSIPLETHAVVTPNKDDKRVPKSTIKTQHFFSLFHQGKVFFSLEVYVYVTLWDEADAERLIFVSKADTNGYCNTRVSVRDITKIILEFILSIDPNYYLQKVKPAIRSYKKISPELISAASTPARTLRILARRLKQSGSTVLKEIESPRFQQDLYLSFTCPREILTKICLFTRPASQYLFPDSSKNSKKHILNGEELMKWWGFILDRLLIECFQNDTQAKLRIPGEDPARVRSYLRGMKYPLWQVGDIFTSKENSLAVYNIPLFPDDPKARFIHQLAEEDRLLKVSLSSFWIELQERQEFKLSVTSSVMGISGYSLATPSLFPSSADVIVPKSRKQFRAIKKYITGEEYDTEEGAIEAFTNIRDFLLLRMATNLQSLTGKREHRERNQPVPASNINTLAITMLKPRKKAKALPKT

Under “subjects with adverse event”, `CC(C)n1c(Nc2cccnc2)nc2cnc(Nc3ccc(N4CCN(C)CC4)cc3)nc21` is recorded as 0% (measured: gum pain; healthy male subjects; oral, 150 mg, study, added: rifampin).
`CCc1c(-c2ccccc2)c(-c2ccccc2)nn1-c1ccccc1-c1cccc(OCC(=O)O)c1` gave a C0 of 13000 ng/mL and 15900 ng/mL and 15100 ng/mL (Sprague-Dawley rat; intravenous, dose not given).
With `COCCc1ccc(OCC(O)CNC(C)C)cc1` (stereo not drawn) the pKa was 9.784 ± 0.002 (n-hexane/tris buffer partitioning; pH 8, free base).
`Cc1ccc(NC(=O)CCC(=O)N/N=C/c2ccc([N+](=O)[O-])o2)cc1C` has an inhibition of -3.6% (Trypanosoma cruzi; reporter translation, Renilla luciferase mRNA translation; cell-free extract; 40 µM; relative to: DMSO).
`C=CC(=O)N(C)CCOc1c(N)ncnc1-c1cc(F)cc(NC(=O)c2ccc(C3CC3)cc2F)c1C` — result for “Cmax per dose”: 2.45 ng/mL/mg (human; oral, 50 mg, day 3, geometric mean, given alone).
Under “dry mouth incidence (all grades)”, `CNC(=O)c1ccc(-c2cnc3ncc(Cc4ccc5ncccc5c4)n3n2)cc1F` is recorded as 0% (CTCAE v4.0, any causality; human hepatocellular carcinoma patients; oral, 600 mg twice daily, expansion cohort at RP2D).
The labelling of `O=C(CCl)N(Cc1ccc(Cl)c([N+](=O)[O-])c1)c1ccccc1` is reported as 21.2% (UCHL1; covalent, intact protein LC-MS; 12.5 µM).
The concentration of `COC(=O)[C@@H]1[C@H]2C[C@H]3c4[nH]c5ccccc5c4CCN3C[C@@H]2CC[C@@H]1O` is reported as 300 nM (rat, thoracic spinal cord; intraperitoneal, 1 mg/kg, 1.5 h, added: tizanidine).
For `CC(C)C[C@H](NC(=O)[C@@H](Cc1c[nH]c2ccccc12)NC(=O)[C@H](Cc1ccc(O)cc1)NC(=O)[C@H](CO)NC(=O)[C@H](Cc1c[nH]c2ccccc12)NC(=O)[C@H](Cc1c[nH]cn1)NC(=O)[C@@H]1CCC(=O)N1)C(=O)N[C@@H](CCCNC(=N)N)C(=O)N1CCC[C@H]1C(=O)NCC(N)=O`, “patients, drug-related nocturnal emission” read 1.5% (Chinese CPP children, overall; intramuscular, 22.5 mg, 12 months, day 1, month 6).
With `O=S1(=O)C=C(Sc2ccc(Cl)cc2)c2ccccc21` the IC50 was greater than 125 µM (Histone acetyltransferase RTT109, with Vps75 (Saccharomyces cerevisiae, UniProt Q07794); enzyme activity, inhibitor, HTS, CPM-based, dose response).
`Cc1cc(-c2nccc3c2ccn3CC(=O)Nc2ccc(-c3cnccn3)cn2)ccn1` — result for “subjects with suture rupture”: 0% (human; 5 mg once daily, multiple ascending dose).
`O=C(N[C@H](Cc1c[nH]c2ccccc12)C(=O)Nc1ccncc1)c1ccc(N2CCN(c3ccc(F)cc3F)CC2)cc1F` has a concentration of 120 nM (Swiss Webster mouse, female, fat; oral, 50 mg/kg, 2 h, 20% HPβCD vehicle).
The Vz/F of `CCN1CCN(Cc2ccc(NC(=O)c3ccc(C)c(NC(=O)c4cncc(-c5cccs5)c4)c3)cc2C(F)(F)F)CC1` is reported as 36.8 L/kg (C57BL/6 mouse, plasma; intraperitoneal, 30 mg/kg, single dose).
The Papp of `COc1cc2[nH]c(C)c(-c3ccc(OC)c(F)c3F)c(=O)c2cc1Cl` is reported as 275 ×10⁻⁶ cm/s (PAMPA; pH 7.4).
`C=CC(=O)NC1CCN(c2ncc3ncnc(Nc4ccc(Oc5ccc6c(c5)ncn6C)c(C)c4)c3n2)CC1`: “participants with headache TEAE” 25% (healthy male humans; oral, 240 mg).
For `CCc1cc(C(=O)NC)c2nccc(N3CCc4c(cc(Cn5ccnc5)cc4-c4cn(C)nc4C(F)(F)F)C3=O)c2c1`, “serum WBC change” read -30.1% (Sprague Dawley rats; oral, 100 mg/kg twice daily, 7 days; relative to: vehicle).
Under “patients with Arthralgia”, `Cc1cc(NC2CCN(C(=O)OC3CCN(C(=O)/C=C/CN(C)C)C3)CC2)n2ncc(C(C)C)c2n1` (stereo not drawn) is recorded as 0% (patients with advanced solid tumours; dose not given, QD arm, grade 3 or higher).
For `CCN1/C(=C/C(C)=O)Sc2ccc(F)cc21`, the heart rate was 127 ± 16 beats/min (cynomolgus monkey; oral, 30 mg/kg, 0.5 h post-dose).
`Cc1nc(-c2cnc(NC(C)C)n(C)c2=O)ccc1Oc1ccnc(-c2cnn(C)c2)c1` gave a Tmax of 1.67 h (Beagle dog, male, plasma; oral, 3 mg/kg, crossover study, mean).
`CN1C(=O)[C@@H](NC(=O)c2nnc(Cc3ccccc3)[nH]2)COc2cccnc21` gave a nasopharyngitis incidence of 25% (phase I multiple ascending dose; human, male and female; oral, 50 mg, 14 days).
`COCc1cc(C(=O)Nc2cc([C@H]3CC[C@@H](OC(=O)NC(C)C)C3)[nH]n2)n(C)n1` gave an unbound Cmax of 7370 nM (OVCAR-3 xenograft, NOD/SCID gamma mice, plasma; oral, 175 twice daily, tumour growth inhibition study).
`COc1ccc2c(=O)n(C)c(-c3ccccc3)nc2c1` — result for tissue concentration: “not detected” (Sprague-Dawley rat, skeletal muscle; oral, 30 mg/kg, 4 h).
For `N#CC(=Cc1csc(C2CC2)n1)C(=O)Nc1ccccc1C(=O)O`, the labelling was 33.1% (UCHL1; covalent, intact protein LC-MS; 12.5 µM).
`O=C(O)CNC(=O)c1ncc(-c2cccc(Cl)c2)cc1O` has a pKa (acidic) of 3.2.

Some of these lines once more:
The labelling of `O=C(CCl)N(Cc1ccc(Cl)c([N+](=O)[O-])c1)c1ccccc1` is reported as 21.2% (UCHL1; covalent, intact protein LC-MS; 12.5 µM).
`COCc1cc(C(=O)Nc2cc([C@H]3CC[C@@H](OC(=O)NC(C)C)C3)[nH]n2)n(C)n1` gave an unbound Cmax of 7370 nM (OVCAR-3 xenograft, NOD/SCID gamma mice, plasma; oral, 175 twice daily, tumour growth inhibition study).
With `COCCc1ccc(OCC(O)CNC(C)C)cc1` (stereo not drawn) the pKa was 9.784 ± 0.002 (n-hexane/tris buffer partitioning; pH 8, free base).
Under “subjects with adverse event”, `CC(C)n1c(Nc2cccnc2)nc2cnc(Nc3ccc(N4CCN(C)CC4)cc3)nc21` is recorded as 0% (measured: gum pain; healthy male subjects; oral, 150 mg, study, added: rifampin).
